# Assay results from different studies.
# A part holds a random share of what one study measured.

# Sample 1 — method: aptamer microarray, sandwich; form: DNA with 2'F-ANA; sample: in vitro; tested at: 200 nM; together with: Cy3 exosite-II aptamer, 400 nM; reading: higher = stronger binding; oligonucleotide: GGTTGGTGTGGTTGG
# Target: Prothrombin, mature alpha-thrombin (F2, Homo sapiens, UniProt P00734)
# Notes: whole 15-mer aptamer, many near background
Modification,mean fluorescence intensity
2'F-ANA at 1 3 4 5 6 7 9 11 13 14,48.3 a.u.
2'F-ANA at 1 2 3 5 7 8 9 10 12 14 15,136 a.u.
2'F-ANA at 2 4 5 6 9 10 11 12 14,46.6 a.u.
2'F-ANA at 1 3 4 6 8 11 12 13,280 a.u.
2'F-ANA at 1 4 6 8 9 11 12 13 14,51.3 a.u.
2'F-ANA at 1 5 6 7 8 9 11 12 15,111 a.u.
2'F-ANA at 3 5 7 11 12 13 14 15,65.5 a.u.
2'F-ANA at 1 2 3 5 6 10 11 12 15,52.4 a.u.
2'F-ANA at 1 2 3 6 11 12 13,291 a.u.
2'F-ANA at 1 5 6 7 9 10 11 12,55.6 a.u.
2'F-ANA at 1 3 7 8 9 13 15,292 a.u.
2'F-ANA at 1 2 3 4 6 7 12 13 14 15,85.2 a.u.
2'F-ANA at 2 4 6 7,340 a.u.
2'F-ANA at 2 6 7 8 9 10 12 13,137 a.u.
2'F-ANA at 2 3 4 6 8 11 12 13,544 a.u.
2'F-ANA at 4 5 6 9 12 13 14 15,51.1 a.u.
2'F-ANA at 1 2 3 4 6 8 10 12 15,68.9 a.u.
2'F-ANA at 1 2 3 5 6 8 9 12 13 14 15,93.7 a.u.
2'F-ANA at 1 2 3 4 5 6 7 8 10 12 15,50.4 a.u.
2'F-ANA at 4 7 8 9 10 11 12 13 14 15,59.8 a.u.
2'F-ANA at 1 3 7 8 11 14 15,104 a.u.
2'F-ANA at 6 7 10 14 15,109 a.u.
2'F-ANA at 1 4 7 11 15,111 a.u.
2'F-ANA at 1 3 5 6 7 10 11 15,51.6 a.u.
2'F-ANA at 1 3 4 5 8 9 10 12 13,45.9 a.u.

# Sample 2 — method: EMSA with sequencing; form: double-stranded DNA, one strand shown; sample: in vitro; tested at: 10 and 20 nM; relative to: negative control set to 0; reading: higher = stronger binding
# Target: Hepatocyte nuclear factor 3-alpha (Foxa1, Mus musculus, UniProt P35582, residues 1-468, full length assumed)
# Notes: whole designed probe, mean of two concentrations, ends assumed
# Construct (chain): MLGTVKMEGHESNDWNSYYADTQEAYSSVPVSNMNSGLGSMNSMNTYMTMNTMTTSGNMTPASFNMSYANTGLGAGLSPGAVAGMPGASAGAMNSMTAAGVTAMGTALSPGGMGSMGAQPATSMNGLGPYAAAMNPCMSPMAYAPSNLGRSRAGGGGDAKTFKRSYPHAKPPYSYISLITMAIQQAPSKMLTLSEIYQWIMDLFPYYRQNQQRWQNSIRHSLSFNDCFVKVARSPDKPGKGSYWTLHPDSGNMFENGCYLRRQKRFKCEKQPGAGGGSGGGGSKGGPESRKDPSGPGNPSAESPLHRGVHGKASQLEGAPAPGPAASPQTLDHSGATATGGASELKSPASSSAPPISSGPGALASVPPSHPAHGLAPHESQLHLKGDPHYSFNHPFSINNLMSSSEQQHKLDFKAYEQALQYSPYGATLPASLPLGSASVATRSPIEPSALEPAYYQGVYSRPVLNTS
Oligonucleotide,normalised bound fraction [ratio]
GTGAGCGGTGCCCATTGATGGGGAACCTCATTCCTTGCTTCCGCCAATAATCTGACTAGTAAAGAAGTCACTGCATGCCACAAATTGTCAGTGCTGACTTCCTCAACAAGGAAGTTATTTATTTACTTATGAGTGACTCAGTTAATATATATGCAAATTCCATCTTGAGAATACCAACTCCTGATGCCAACTGATTGTCAGTCATGGCTACAACAGGAGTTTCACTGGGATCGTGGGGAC,0.491
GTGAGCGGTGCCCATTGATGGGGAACAGTGGCAGGTTCCCTGCTGGGATTTAGCTGGAGAACAAAGTAAGTTTGCATAATGAGTGTGAGAGCTGTAAAGAATAAACTGTGAAGTGCTGTGCAAATATTAGCTCTCCTGTCTCTTCCAGCTCTGGCCTTCCCTTAACAGTGTGGCTGAAAGCCCTTTGTCTGAGGACAAGGACAGATAAGCTAGTTAGAGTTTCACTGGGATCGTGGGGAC,0.382
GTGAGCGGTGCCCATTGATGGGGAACAGACTGGGAATCTGAGCAATGCTCATGGCAATAAGCCAGGACCAGGCCCTAAACATCTGGCTGCTCCACTGTATGGATCTTTGGCATGTTAAATGTCATCTGACCTTGTGGATATAAAGTTGACTCAGTCAGAAAACATCTACGGTCTACATGGAAAAGAAAGTCTTTTGGAAAGAAAAGAAGGCAGGGTGTCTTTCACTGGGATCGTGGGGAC,-0.0394
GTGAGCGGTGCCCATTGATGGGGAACGTGCTGAATGCATGTAAATTGCTTTCCTTCAAAAATACGTAACTAGGAAGAGCAGAGTACTATGTAATTTTGCTAATCACATGCTTTACTAAGTAATCTAAGAATACTTTAGGATAGATTTTATTTAAAGTCATCACCTTTCATAATCATTTTATTCTGCATCATAATTTCTTAATCAGGTAATGTAATTATATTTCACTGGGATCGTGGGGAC,-0.0151
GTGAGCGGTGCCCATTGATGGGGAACATCAAAGGATGACAAGTAACAGTAAATATGTAGTATTGATCCCAAATAGAAATATAGATGGATTTTTATCTTATGATGACATTTTAGTCTGAGTAAACAACAAAAAGTCACTGGGATGGGTGGCAGTGGTAAGAAGATGGCAGATGTCTATCTATTGATTGTATTCATATTCATATTTATATTCATTTATATGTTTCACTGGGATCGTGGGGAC,0.428
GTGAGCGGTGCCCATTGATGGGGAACATAGTGGTGAGCTTCTCTATGTTGTGTCTACATGGCTATGATGACAAGTGGAGTTATACGCCTGTGCTCTATACTCACTGAGTCACGAAGAATGTAATCTTCCTACCTCGGCCTATCCTTGACCAAAGCACAGCCATGTTCCTTACACTCTGGGTCCCCACGGTTCAGACAGAAGTCTCTCTGACAGACAACATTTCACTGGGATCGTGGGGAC,0.0623

# Sample 3 — method: RNA Bind-n-Seq; form: RNA; sample: in vitro; tested at: 365 nM; relative to: no-protein control; reading: higher = stronger binding
# Target: RNA binding protein fox-1 homolog 2, RRM domain, GST-SBP tag (RBFOX2, Homo sapiens, UniProt O43251-10, residues 100-194)
# Notes: natural RNA segment, single round, ends assumed
Oligonucleotide,RBNS enrichment (R)
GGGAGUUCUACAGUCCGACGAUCUAUUAGAUACUCACAAUCAAAGUCUGAUUUAAUGUAAAAAUUAAUAAAAUGUGUCUAUACUUAGCAUUGUAAGGAAAAACAUCAUUACCAUAGAUAUUUAUUAUAUUUGAUGGAAUUCUCGGGUGCCAA,0.883
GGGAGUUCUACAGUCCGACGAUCUAUAUCAAAUUGUGCACUUUAAAUAUGUGCAAUUUGUUGUACAUCAGUGAUACCUCAAUAAAUCUGUAAAAAAAGAAAAAUUAAACCUUGUAUUAAAAUAAAUAGCAAACUGGAAUUCUCGGGUGCCAA,0.894
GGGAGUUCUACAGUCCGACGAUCGGCCAGGUGGGGCUGCCUCAGUCCUGUCCCCUUGGGCACUGAGGAGAGGGGCCCAUUCACCUUUCUCCUAGAAUGCUGUUGUAAAUAAACAAAUGGAUCCCUGGAAACUUUGGAAUUCUCGGGUGCCAA,0.571
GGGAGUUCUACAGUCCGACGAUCCUGCUUUCUUCUUCCGGCUGGUACAGAAUCUGUGUCCAUCAUUUUUCACUACAGGUCUUGUUAAAAUUCUUUGCAGCACUUCGUGUCCCCUCACGUCCCAUGUGCUCAGAUGGAAUUCUCGGGUGCCAA,0.463
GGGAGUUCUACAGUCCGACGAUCGUAGAUAACAGACAAGUCCUAAGCAGUGUUCCACUAAGGGUGGUUCCAGGCCUGCCUGCCGUGGAGUUGACUGGGGGAAUUUUACAGUUUUGCGAUCCUAGGAUGCGUCCUGGAAUUCUCGGGUGCCAA,1.53
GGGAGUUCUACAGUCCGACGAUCAAGAUUGUCUGCUUACUCAUUUUUAAAAAUUAAAGAAAUGAACAAUCAGUGUGGCUAUUCCUAGCAAGGUGGUAUUCGUUGGGUUUUUUGUCCUGGUUUUAUUCCCUCCAUGGAAUUCUCGGGUGCCAA,0.466
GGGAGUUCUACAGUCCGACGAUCUAUAUAGCUCUUUGGCUCGUGAACCUAAUUGUAAACUUUCAGGUAUUUUUGUACAAAUAAGGGACUGAUGUUCUGUUUCUUGUUAUUAGAAAUAAACAUUAAUAAAGCGUUGGAAUUCUCGGGUGCCAA,0.414
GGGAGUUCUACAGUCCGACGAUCAAUAAGUUGGAAAACUUAAAUUAAAAAGCAGAACCUGUUUUAUAUUAAGAAGGUCUAGACAUGGACAUUUUCUGUCCUACAAUGCUGACAUACUGUUAUUUCUUCUGGGAUGGAAUUCUCGGGUGCCAA,0.598
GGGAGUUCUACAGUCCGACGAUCAGACUCCUUGGAUAUUUCCCAAGAACCCCCCACAUACACCCCUCACAAGCCACCCCUCCUGAGAGGCAGGGGGCCCUCCGCCCCCUCCCCAUGUAUUCCCCACCUGUGUUUGGAAUUCUCGGGUGCCAA,0.511

# Sample 4 — method: competition protein-binding microarray; form: double-stranded DNA, one strand shown; sample: in vitro; tested at: 2 µM; together with: Pho4 competitor, 0.05 µM; reading: higher = stronger binding
# Target: Centromere-binding protein 1, full length, His-tagged (CBF1, Saccharomyces cerevisiae, UniProt P17106, residues 1-351)
# Sequence of UniProt P17106 (whole entry, looked up): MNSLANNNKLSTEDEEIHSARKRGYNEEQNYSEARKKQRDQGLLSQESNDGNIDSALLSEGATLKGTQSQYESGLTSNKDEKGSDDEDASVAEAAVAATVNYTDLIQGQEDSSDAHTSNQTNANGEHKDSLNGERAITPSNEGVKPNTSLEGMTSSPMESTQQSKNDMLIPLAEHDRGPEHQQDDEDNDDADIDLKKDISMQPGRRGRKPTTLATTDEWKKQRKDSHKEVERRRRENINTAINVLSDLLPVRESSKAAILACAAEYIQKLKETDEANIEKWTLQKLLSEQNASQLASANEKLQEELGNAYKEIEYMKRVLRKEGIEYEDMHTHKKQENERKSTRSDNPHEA
# Notes: whole 60-bp probe, lowest competitor level
Oligonucleotide,fluorescence intensity [a.u.]
CTAACGAAGGTTTTTCACGTGTTTTACAAGCCAAGTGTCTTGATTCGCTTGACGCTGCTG,945
CTTTCCCGATCTTTTCACGTGCGTTTAGCACATTTGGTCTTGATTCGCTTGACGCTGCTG,662
CTTCTGTAAATTTGGATAGTGGGTGGACGCGCCCCGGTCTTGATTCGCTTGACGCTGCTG,85.1
TTCCGGGGAACGTCCCACGTTCACAACCGCGCCGCGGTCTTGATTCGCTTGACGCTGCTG,59.9
CCAGCAGAAACGCTACACGTGATGGTAATGGAACTAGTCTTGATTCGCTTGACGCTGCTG,2760
GGCCATCCGCTCCGTCACGGGCCAATCGAAGCTCTTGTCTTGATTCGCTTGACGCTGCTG,106
GTCTTGTCTCATTGTCACAGTACTTTCCCCACTTCAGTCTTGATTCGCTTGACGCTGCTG,96.3
CGTCCTAGTGATTGCGTCGTGGGTGCCATGAGGAAGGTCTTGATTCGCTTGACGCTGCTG,77.7
AAATTACTAAGTTTTCACGTGGTGTACCCCGTATGAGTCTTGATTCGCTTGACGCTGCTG,1040
AATCGCGATCCCCATCACGTTCTTTAGCCTCATTATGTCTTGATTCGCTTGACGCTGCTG,233
AAAGCGGTAATTTTTCACGTGCTGTCAAATATCTATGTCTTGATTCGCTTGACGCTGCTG,1850
AAATTACTAAGTTGCTTAGTGGGTGACGCCGTATGAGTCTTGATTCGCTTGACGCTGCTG,62.4
AAGGTCTATGTTCTTCACGTGATGGAGAGGACTATAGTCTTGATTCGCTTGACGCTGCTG,2510
TGTTTCAAGTCTTCCGACATGACAGCGTAGTTATGGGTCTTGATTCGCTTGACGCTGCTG,80.9
CCGATTTAAATGTCCCACGTAAACTTTTCGCCAATTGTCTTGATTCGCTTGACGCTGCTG,81.5
CATACCCAACCTTGTGGGGTGGGTGAAGATATTTGTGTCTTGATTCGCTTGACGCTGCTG,72.4
TGAAATGGAATCGACCACGGGTCTTGTTGAAAGCAGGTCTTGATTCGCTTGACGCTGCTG,95.4
GTCTTGTCTCATTTTCACGTGATGTTCCCCACTTCAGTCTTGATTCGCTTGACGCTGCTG,2170
